Measured values pooled from the literature.
Numbered parts are unrelated; each lists some results of a single study. Changes are numbered by the printed parent chain.

Study 1
Target: inorganic phosphate, free oxyanion
Method: microfluidic competitive inhibition
Sample: in vitro, cell-free expressed
Concentration: not given
Setting: derived from inhibition constants, unchanged parent 615000 nM
Reading: lower = stronger binding
Starting sequence: PafA, mature enzyme, eGFP fusion (Elizabethkingia meningoseptica, UniProt Q9KJX5); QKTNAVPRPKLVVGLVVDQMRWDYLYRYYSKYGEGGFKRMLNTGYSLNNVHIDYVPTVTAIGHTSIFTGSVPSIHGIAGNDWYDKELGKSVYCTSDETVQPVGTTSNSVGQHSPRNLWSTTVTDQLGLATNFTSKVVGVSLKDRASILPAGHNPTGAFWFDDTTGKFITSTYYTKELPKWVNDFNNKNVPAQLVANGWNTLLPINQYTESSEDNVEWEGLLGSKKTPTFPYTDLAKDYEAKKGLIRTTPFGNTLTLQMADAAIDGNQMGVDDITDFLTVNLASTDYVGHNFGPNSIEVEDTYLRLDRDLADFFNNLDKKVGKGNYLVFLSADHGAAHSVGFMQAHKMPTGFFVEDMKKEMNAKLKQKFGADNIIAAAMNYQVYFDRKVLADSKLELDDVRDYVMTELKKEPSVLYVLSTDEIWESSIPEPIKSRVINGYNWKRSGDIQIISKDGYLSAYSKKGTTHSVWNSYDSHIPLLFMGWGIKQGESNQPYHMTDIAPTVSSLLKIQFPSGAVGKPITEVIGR
Change | phosphate dissociation constant
M404G | 448 µM
E297G | 235 µM
G138V | 393 µM
N42V | 659 µM

Study 2
Target: CCNB2, cyclin fold, Cln2 fusion (human)
Method: yeast growth competition, sequencing
Sample: yeast
Setting: weak parent motif
Reference: not given
Reading: higher = stronger binding
Starting sequence: viral docking peptide; KGVKRKLFAEDSS
Change | normalised enrichment score
KGVKRKLFNEDSS [A9N] | 0.513
KGVERKLFAEDSS [K4E] | 0.143
KGVKRKLFAEDWS [S12W] | 1.05
KGVKRKLFAELSS [D11L] | 0.334
KGVKRKLFAIDSS [E10I] | 0.741
KGVKRKLFAEDCS [S12C] | 0.984
KGVKFKLFAEDSS [R5F] | 0.54
KGVKRKLFAGDSS [E10G] | 0.711
KGKKRKLFAEDSS [V3K] | 0.507
KGVKRKLFACDSS [E10C] | 0.216
KGVKTKLFAEDSS [R5T] | 0.284
KGVKRKCFAEDSS [L7C] | 0.13
KGVKRKLFLEDSS [A9L] | 0.793
KGVKRTLFAEDSS [K6T] | 0.824
KGMKRKLFAEDSS [V3M] | 0.147
KGVKRKLFMEDSS [A9M] | 0.918
KGVKRRLFAEDSS [K6R] | 1.11
KGVKRKQFAEDSS [L7Q] | 0.731
KGVKRKLFAEASS [D11A] | 0.96
KGVVRKLFAEDSS [K4V] | 0.347
KGVKRKLFAEDYS [S12Y] | 0.75
KGVKRKLFAEISS [D11I] | 0.772
KGVKIKLFAEDSS [R5I] | 0.223
KGVKRKLFAEYSS [D11Y] | 0.359
KKVKRKLFAEDSS [G2K] | 0.755

Study 3
Target: CEBPA, bZIP domain (human)
Method: DHFR protein complementation
Sample: yeast
Setting: single substitutions, most at no-binding floor
Reference: wild-type JUN-FOS pair
Reading: higher = stronger binding
Starting sequence: JUN, bZIP domain (human); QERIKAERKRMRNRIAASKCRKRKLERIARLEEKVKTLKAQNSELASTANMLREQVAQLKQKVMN; partner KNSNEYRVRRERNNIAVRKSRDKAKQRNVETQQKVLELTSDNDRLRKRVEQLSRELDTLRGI
Change | binding fitness
K36H | -1.53 natural log
Q58P | -1.55 natural log
T37N | -1.32 natural log
L59W | -1.5 natural log
E54L | -1.49 natural log
T48V | -1.41 natural log
E44P | -1.56 natural log
L31W | -1.46 natural log

Study 4
Target: RING finger protein unkempt homolog, zinc fingers 1-6, SBP tag (UNK, Homo sapiens, UniProt Q9C0B0, residues 30-357)
Sequence of UniProt Q9C0B0 (30-357, looked up): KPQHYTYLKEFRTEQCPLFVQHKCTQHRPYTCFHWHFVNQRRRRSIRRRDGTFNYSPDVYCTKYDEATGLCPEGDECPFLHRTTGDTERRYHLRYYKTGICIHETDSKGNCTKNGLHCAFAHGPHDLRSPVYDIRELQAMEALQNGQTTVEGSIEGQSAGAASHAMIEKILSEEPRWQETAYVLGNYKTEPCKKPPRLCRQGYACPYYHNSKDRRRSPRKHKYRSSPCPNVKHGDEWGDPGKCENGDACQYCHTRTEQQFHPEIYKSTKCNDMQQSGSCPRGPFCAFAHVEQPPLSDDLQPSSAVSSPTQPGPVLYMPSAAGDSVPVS
Method: RNA Bind-n-Seq
Form: RNA
Sample: in vitro
Concentration: 100 nM
Setting: RNA with constant flanks, vertebrate orthologous sites, ends assumed
Reference: input RNA pool
Reading: higher = stronger binding
Oligonucleotide | bound/input enrichment [ratio]
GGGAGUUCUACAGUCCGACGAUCGUACUGCCCGUGCAAAUCCCACAACACUGAAUGCAAAGUAGCAAUUUCCAUAGUCACAGUUAGGUAGCUUUAGGGCAAUAUUGCCAUGGUUUUACUCAUGUGCAGGUUUUGAAAAUGUACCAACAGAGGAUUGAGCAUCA | 1.33
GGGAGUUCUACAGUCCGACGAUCGCAAUGAAAAAGCAUCCCUUCUCCCAGCCCCCUUUUCACUAGGAGAUGCAAAGGUUACCAUAGAAGAGCAAUUAAACUCAAUAAAUUUAUCUUUUCAGGAUGAUCCAGACUCCAGUACCACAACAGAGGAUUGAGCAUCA | 0.84
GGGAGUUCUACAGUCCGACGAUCCAGCUGAUUCACUCAUUGGAAGAGCUGCACAUAUAGCUGUUCUGGAUUCAGAAAUAUUUUUGGAGAAAUUCUUCCUGGUUGCUGCCCUCAAAUAUUUCCAAUAGAAUAAACAUAUUAGACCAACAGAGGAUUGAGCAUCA | 1.4
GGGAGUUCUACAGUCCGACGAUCGUGUUGGUGCAGAGUGUCCUGUACCAGUGCUCAUCAUCCCUUCUUCAUACCAACUGUCCCUAGUUAUAGGAAUUUAAUAUUUUUAAAAAUUUUACAUUGCUGUAUAUUCAAAGAUUUGUUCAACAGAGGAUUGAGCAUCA | 0.905
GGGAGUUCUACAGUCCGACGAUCCAUAGAAUAUUGGAUGCAGCAUAUAAAUUAUCCAAGGCAGUGACUUCAGCUUUAUAGAGAUUGUUAGUUUUAAAGGCACCUAAUUUUAUUUAAACUUCUAGAUUGGAUUGUUUGCUAUUGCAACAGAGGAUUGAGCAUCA | 1.51
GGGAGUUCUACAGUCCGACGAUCUGAUGGCCGCUUCUCCCCUGCCUCAGUGAGGUAAAGUCUCCCUUGGCAUUUGGUUGGUACCAGAGCCAGCCAUACCUAAUACAGGUUUCCACAUUUCUUUCACACUCAUAGUCAUCUUCACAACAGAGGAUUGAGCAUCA | 0.644
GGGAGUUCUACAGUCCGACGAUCACAGGAGCAGCAUAGGCUGUUUGAGCUUUGGGGAAAUGAGCUUUGCUUUUUAUAUUUAACUAGGAUACUUUUAUAUGAUGGGUGCUUUGAGUGUGAAUGCAGCAGCCUCUCUUGUUUCCGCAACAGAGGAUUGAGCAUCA | 1.63
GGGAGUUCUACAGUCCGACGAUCUUACAGUCAUUGAUGGACUCUAUUUUUUUAUUAUUACUUGGACUUUGGUCGUUUUUAUACUAGCAAAAUGUCUUGUUUUAAUUUGUGUUUUUUUUUGGGGGGGGAGGGAGUGAACUUGCUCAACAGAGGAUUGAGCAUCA | 1.68

Study 5
Target: UDP-N-acetylglucosamine--peptide N-acetylglucosaminyltransferase 110 kDa subunit (OGT, Homo sapiens, UniProt O15294)
Sequence of UniProt O15294 (whole entry, looked up): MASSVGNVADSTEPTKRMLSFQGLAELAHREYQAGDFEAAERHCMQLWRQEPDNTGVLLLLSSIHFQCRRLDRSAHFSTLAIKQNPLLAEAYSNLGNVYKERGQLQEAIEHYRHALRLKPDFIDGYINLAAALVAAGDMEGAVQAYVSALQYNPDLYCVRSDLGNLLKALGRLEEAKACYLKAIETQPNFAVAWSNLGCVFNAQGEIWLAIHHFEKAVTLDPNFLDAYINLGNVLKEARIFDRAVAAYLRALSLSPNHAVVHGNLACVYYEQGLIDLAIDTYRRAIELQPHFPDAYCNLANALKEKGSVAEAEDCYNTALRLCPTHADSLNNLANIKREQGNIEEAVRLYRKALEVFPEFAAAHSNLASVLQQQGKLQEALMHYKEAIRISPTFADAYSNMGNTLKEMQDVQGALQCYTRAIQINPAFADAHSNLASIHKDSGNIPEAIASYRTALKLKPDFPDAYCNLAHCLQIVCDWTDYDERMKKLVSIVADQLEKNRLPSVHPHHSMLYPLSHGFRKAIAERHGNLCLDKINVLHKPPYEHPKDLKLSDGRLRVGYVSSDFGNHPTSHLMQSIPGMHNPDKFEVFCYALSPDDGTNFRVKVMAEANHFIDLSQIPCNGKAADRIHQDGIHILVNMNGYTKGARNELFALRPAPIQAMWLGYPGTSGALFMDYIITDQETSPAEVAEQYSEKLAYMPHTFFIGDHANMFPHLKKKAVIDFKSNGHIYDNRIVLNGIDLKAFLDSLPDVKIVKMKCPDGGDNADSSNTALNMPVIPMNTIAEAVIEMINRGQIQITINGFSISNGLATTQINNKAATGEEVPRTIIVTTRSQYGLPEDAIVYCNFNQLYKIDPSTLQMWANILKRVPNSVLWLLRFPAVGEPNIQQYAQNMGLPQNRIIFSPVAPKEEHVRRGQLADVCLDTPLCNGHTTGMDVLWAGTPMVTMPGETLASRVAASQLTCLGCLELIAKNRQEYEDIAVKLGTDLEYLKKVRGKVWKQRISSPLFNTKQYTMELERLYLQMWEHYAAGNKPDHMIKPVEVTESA
Read-out: binding
Method: phage display NGS
Form: peptide
Setting: panning round 2
Reference: input library
Molecule | minimum log2 enrichment ratio
IPNYIHMTHYHQHAH | 2.8
TWRHVVEANHVHMPK | 3.63
EMEVYDYFPFYQIQV | 3.32
EEVPSQYAPYYEITY | 1.71
HTYEQHWTHEIWHLA | 2.3

For quick reference, copied from above (study 3):
Change | binding fitness
K36H | -1.53 natural log
Q58P | -1.55 natural log
T37N | -1.32 natural log
L59W | -1.5 natural log
E54L | -1.49 natural log
T48V | -1.41 natural log
E44P | -1.56 natural log
L31W | -1.46 natural log
